Measurements collected from several papers.
Every numbered part comes from another study and shows a few of its results, in no order. Positions count from the first letter of the parent shown.

Block 1
Target: Sal-like protein 4, full length isoform B (SALL4, Homo sapiens, UniProt Q9UJQ4-2, residues 1-616)
Technique: universal PBM
Molecule type: double-stranded DNA, one strand shown
Matrix: in vitro
Concentration: not given
Notes: 8-mer, flanks averaged, mean of replicates
Direction: higher = stronger binding
Measurement: E-score
AGGGTGAC: -0.0654
AGCGCGGG: -0.298
CGTTTGCA: 0.067
CCGGACTA: -0.203
CAACGCCC: -0.203
AGTGCCGG: -0.227
GAATCATA: 0.354
ACATGCCA: -0.0115
ATGAATTC: 0.204
CCTTGGCC: -0.306
GCGCAGAA: -0.186
CATTGGCA: 0.0126
CACCCTTA: 0.0285
AGCCTCCA: -0.102
ACAGAGCG: -0.0751
CAGATTGA: -0.0221
GAGACCCA: -0.22
CAATCAGG: -0.0172
ACAGAGTA: 0.131
CTGATAGA: 0.142

Block 2
Target: RING finger protein unkempt homolog, zinc fingers 1-6, GST-SBP tag (UNK, Homo sapiens, UniProt Q9C0B0, residues 30-357)
Sequence of UniProt Q9C0B0 (30-357, looked up): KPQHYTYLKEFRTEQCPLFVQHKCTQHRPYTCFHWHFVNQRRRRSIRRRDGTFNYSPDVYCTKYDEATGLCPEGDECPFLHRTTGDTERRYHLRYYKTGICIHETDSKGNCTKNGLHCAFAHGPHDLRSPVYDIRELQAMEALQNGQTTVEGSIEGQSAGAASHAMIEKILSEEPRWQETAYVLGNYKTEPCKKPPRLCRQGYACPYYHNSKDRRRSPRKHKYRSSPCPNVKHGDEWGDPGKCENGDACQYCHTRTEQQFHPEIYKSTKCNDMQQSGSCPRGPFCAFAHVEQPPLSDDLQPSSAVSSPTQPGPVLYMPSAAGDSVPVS
Technique: RNA Bind-n-Seq
Molecule type: RNA
Matrix: in vitro
Concentration: not given
Notes: RNA with constant flanks, human and mouse sites, ends assumed
Baseline: input RNA pool
Direction: higher = stronger binding
Measurement: bound/input enrichment
All sequences stand within: GGGAGUUCUACAGUCCGACGAUC … CAACAGAGGAUUGAGCAUCA
CCUAUAGGACAGAGAGGCAGUGAGCAAGGCAAACGUGUGGAGAACAUUAAUGGAACCUCCUACCCUAGUCUACAGCAGAAAACCAAUGCUGUUAAGAAAUUACAUAAAUGUGAUGAAUGU: 23.7 ratio
AUCGUCAAUGAUGAUCAGUCCUUUUAUGCUGAUAUUUACAUGGAGGAUGGCUUAAUAAAGCAAAUUGGAGACAAUCUGAUUGUCCCCGGAGGUGUGAAGACCAUCGAGGCCAACGGGAAG: 0.185 ratio
UGGCUUAUUUUAGUUACAGGCUACCUCUUAGCUGAUGAUACUCAGGGAGAGACUCCGCUAAUACCUCCAGAAAUAAUGGAAUAUUCCAUUAAGCAUUCAUCUGAAGUUGACAUUAAUACA: 0.328 ratio
AGCGACAGAAAAAGGGAAGGGUGUCUCAUCCCCCUUCCUCCUCUCCUCCCUGUCCUGAGCCUUAGCCAUGGCCGAGGCAGGGGCUGGGCUGAGCGAGACCGUCACUGAGACAACGGUUAC: 0.375 ratio
CCUUCAGUCUAAAAGACAUGAAAGAAGUGUAAGUAUAGCAGUUAAAACGAAAAUAAUGGUUAUGGGUGUUUUGACUGGAGGCAAUGUAGCCAAAUAGAGUAAAGAGACCCCCCUGGUCGG: 5.33 ratio
AAUUUGUUGUCAGCAAGCAAAUUAUAUAACAAUAUCACCUUUGAAGAACUUGGAGCUCUUUUAGAGAUCCCUGCAGCUAAGGCAGAAAAGAUAGCAUCUCAGAUGAUAACGGAAGGACGC: 0.716 ratio
AAUUGUGCAAUCAGCAGCUCUGAUGACCGCAGUCUCUUUCGACGACUGAAACUGAAUUAUGCAAUUUUUGAUGAAGGCCAUAUGCUGAAGAAUAUGGGCUCUAUCCGCUAUCAACAUCUA: 0.148 ratio
AUAGAUGAAAUUGAUGUGGACCAGGAAGGAAUUGCUGAAAUGAUCCUGGAUGAAAAUGCUAUUGCUCAGGUCCCACGCCCUGGCACAUCUUUGAAGCUCCCUGGCACUAACCAAACAGGA: 0.258 ratio
UUCUAAAGAUAUCUAGCAAAUCUCCAGCAGAGAUCUAGGACAGUGCCCAGGAAAGCAAUGGUAUCUGUUGGUAGGUACAGGACUGUAUAUAGGACUCUAUUCACUUAGCUGUAAAUGAUG: 2.6 ratio
ACCAUGCACAAUUUUGUACGGAAGACCUUCUUCAGCCUGGCGUUCUGUGACUUCUGCCUUAAGUUUCUGUUCCAUGGCUUCCGUUGCCAAACCUGUGGCUACAAGUUCCACCAGCAUUGU: 0.132 ratio
CCUCCACCUUCACCGUUGCCAUUUCCAACACAAGCUAUCCUUCCUCCAGCCCCAUCGAGCUACUUUUCUCAUCCAACAAUCAGAUAUCCUCCCCACCUGAAUCCUCAGGAUACUCUGAAG: 0.586 ratio

Block 3
Target: ABI1, truncated, D143A, DHFR fusion (Arabidopsis thaliana)
Technique: DHFR PCA, deep sequencing
Matrix: yeast
Notes: methotrexate growth selection, single substitutions
Added: (+)-ABA 0.032 µM
Baseline: wild-type fitted maximum
Direction: higher = stronger binding
Measurement: relative binding score
Starting sequence: PYL1, truncated, DHFR fusion (Arabidopsis thaliana); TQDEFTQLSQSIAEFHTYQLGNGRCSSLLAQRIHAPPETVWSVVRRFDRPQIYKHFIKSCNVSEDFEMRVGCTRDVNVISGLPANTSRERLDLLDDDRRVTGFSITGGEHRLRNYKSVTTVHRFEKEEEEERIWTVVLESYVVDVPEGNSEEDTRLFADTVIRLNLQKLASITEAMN
R88V: 32.8%
G107W: -2.24%
K58L: -2.65%
I57P: 0.169%
L138T: -3.06%
R45K: -0.854%
R69D: 2.94%
R113E: 3.79%
D95N: -2.2%
Q19I: 2.26%
V78M: 67.7%
T17G: -1.97%
Q167P: 0.328%
A84V: 25.3%
V161M: 67.8%
V76I: 41.3%
G21Q: 24%
R49T: 11%
V78Y: 94.6%
N114H: 6.08%
E89N: -1.09%
Y18E: -5.87%
E109Y: 6.22%

Block 4
Target: Interferon regulatory factor 5, full length, phosphomimetic (IRF5, Homo sapiens, UniProt Q13568-2, residues 1-514, K96S/S451D/S453D/S456D/S462D)
Technique: protein-binding microarray
Molecule type: double-stranded DNA, one strand shown
Matrix: in vitro
Concentration: 250 nM
Notes: 60-bp whole probe
Added: salmon DNA 0.4 mg/ml
Baseline: random background probes
Direction: higher = stronger binding
Measurement: log fluorescence
All sequences stand within: GCCTAGCAC … GTCTTGATTCGCTTGACGCTGCTG
GACGGGTTCGGTTCCGGGACGTGCTAG: -0.225 z-score
TTAGGGCTCCTACTGCTTTAGTGCTAG: -0.52 z-score
GACGGACTGGGTTTCGGGTCGTGCTAG: 4.15 z-score
GCGATCCTCTCACCTCAGCCTGTGCTA: -0.0633 z-score
GACGGTATCGACACAGGGGACGTGCTA: 2 z-score
TTAGAACTGGCGACTGGATTAGTGCTA: -0.166 z-score
GAAGGTATCGGGTATCGGGACGTGCTA: 2.86 z-score
GACGGTCTCCTACTGATGACGTGCTAG: -0.389 z-score
GACGGTATCGGGTTTCGGGACGTGCTA: 4.31 z-score
TCAACATTGCACAATCTTACTGTGCTA: 0.444 z-score
TTAGGTTCCCTACTGCTTTAGTGCTAG: -0.249 z-score
TTAGGTTTCTTTTATTCAAAGTGCTAG: 2.16 z-score
GACGGTCTCGGTCTCGGTACGTGCTAG: 0.378 z-score
TTAGGCATCGGTCTCGGTTAGTGCTAG: 0.837 z-score
GACGGTATCGGGTTGCGGGACGTGCTA: 2.63 z-score
CACTTTGGATAACCAAAAACGTGCTAG: 0.481 z-score
TTAGATTTCGGGACTGCATTAGTGCTA: 2.83 z-score
TTAGGTATCGAGACTGGGTTAGTGCTA: 1.9 z-score
